Published values pooled from the literature.
A part holds a random share of what one study measured.

Series 1
Target: Histone acetyltransferase KAT6A, winged helix 1, GST fusion (KAT6A, Homo sapiens, UniProt Q92794, residues 1-85)
Technique: protein binding microarray
Form: double-stranded DNA, one strand shown
Matrix: in vitro
Concentration: not given
Setting: 8-mer, flanks averaged, mean of 2 arrays, mostly near background
Reference: not given
Direction: higher = stronger binding
Residues (chain): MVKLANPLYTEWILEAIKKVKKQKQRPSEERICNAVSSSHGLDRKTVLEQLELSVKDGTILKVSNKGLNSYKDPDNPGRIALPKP
Strand | E-score
GCTAGTTA | 0.157
GAACTAAC | -0.0964
AATAGGCA | -0.0626
CAACCCAA | -0.258
AGTTTGCA | -0.204

Series 2
Target: Interferon regulatory factor 3, full length, phosphomimetic (IRF3, Homo sapiens, UniProt Q14653, residues 1-427, S386D/S396D/S398D/S402D/T404D/S405D)
Technique: protein-binding microarray
Form: double-stranded DNA, one strand shown
Matrix: in vitro
Concentration: 2540 nM top
Setting: 60-bp whole probe
Added: salmon DNA 0.4 mg/ml
Reference: random background probes
Direction: higher = stronger binding
Construct (chain): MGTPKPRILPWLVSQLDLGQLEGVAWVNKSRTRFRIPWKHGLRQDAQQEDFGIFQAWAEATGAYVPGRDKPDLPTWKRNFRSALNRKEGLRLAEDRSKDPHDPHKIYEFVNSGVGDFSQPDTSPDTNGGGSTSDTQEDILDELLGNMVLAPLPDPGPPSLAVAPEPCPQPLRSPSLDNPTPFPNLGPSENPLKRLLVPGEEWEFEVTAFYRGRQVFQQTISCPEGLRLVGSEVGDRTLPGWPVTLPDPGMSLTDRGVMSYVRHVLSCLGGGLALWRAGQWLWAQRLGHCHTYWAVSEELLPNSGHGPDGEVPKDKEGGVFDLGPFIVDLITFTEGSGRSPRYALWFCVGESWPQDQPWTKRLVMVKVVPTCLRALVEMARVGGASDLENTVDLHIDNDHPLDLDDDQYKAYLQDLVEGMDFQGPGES
Strand | fitted relative affinity
GCCTAGCACGACGGACCGGACTTTCGGGACGTGCTAGTCTTGATTCGCTTGACGCTGCTG | 0.381 z-score
GCCTAGCACTTCTGATCCATTTTGGTTTTGTGCTAGGTCTTGATTCGCTTGACGCTGCTG | 3.15 z-score
GCCTAGCACTCAGCTCTTATATACCTGACTGTGCTAGTCTTGATTCGCTTGACGCTGCTG | 0.142 z-score

Series 3
Target: Hepatocyte nuclear factor 3-beta, forkhead domain (FOXA2, Homo sapiens, UniProt Q9Y261, residues 142-269)
Technique: protein-binding microarray
Form: double-stranded DNA, one strand shown
Matrix: in vitro
Concentration: not given
Setting: k-mer, scored over probes, only values ≥0.25
Direction: higher = stronger binding
Construct (chain): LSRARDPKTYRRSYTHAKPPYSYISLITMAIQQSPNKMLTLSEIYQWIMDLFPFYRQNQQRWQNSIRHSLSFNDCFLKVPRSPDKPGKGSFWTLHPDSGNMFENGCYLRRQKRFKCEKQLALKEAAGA
Strand | E-score
ATATTGAC | 0.36
AACTATCT | 0.275
ACACTGAA | 0.277

Series 4
Substance: PhoQ, residues 284 288 289 292 302 303 AGGCYF
Technique: Sort-seq
Measured: YFP reporter
Matrix: E. coli
Setting: PhoQ-PhoP variant library
Added: 10 µM Mg2+
Reference: high Mg2+ state
Direction: higher = stronger signaling
target | fold induction
PhoP, residues 12 14 15 18 19 TQCLL (Escherichia coli, UniProt P23836) | 0.948
PhoP, residues 12 14 15 18 19 VHTVL (Escherichia coli, UniProt P23836) | 6.26
PhoP, residues 12 14 15 18 19 ICWRQ (Escherichia coli, UniProt P23836) | 7.2

Excerpt of the above (series 4):
target | fold induction
PhoP, residues 12 14 15 18 19 VHTVL (Escherichia coli, UniProt P23836) | 6.26
PhoP, residues 12 14 15 18 19 TQCLL (Escherichia coli, UniProt P23836) | 0.948
